Results gathered from unrelated publications.
Each numbered part is a random draw from the data of one study; scales do not carry over between parts.
UniProt O00444, sequence (whole entry, looked up): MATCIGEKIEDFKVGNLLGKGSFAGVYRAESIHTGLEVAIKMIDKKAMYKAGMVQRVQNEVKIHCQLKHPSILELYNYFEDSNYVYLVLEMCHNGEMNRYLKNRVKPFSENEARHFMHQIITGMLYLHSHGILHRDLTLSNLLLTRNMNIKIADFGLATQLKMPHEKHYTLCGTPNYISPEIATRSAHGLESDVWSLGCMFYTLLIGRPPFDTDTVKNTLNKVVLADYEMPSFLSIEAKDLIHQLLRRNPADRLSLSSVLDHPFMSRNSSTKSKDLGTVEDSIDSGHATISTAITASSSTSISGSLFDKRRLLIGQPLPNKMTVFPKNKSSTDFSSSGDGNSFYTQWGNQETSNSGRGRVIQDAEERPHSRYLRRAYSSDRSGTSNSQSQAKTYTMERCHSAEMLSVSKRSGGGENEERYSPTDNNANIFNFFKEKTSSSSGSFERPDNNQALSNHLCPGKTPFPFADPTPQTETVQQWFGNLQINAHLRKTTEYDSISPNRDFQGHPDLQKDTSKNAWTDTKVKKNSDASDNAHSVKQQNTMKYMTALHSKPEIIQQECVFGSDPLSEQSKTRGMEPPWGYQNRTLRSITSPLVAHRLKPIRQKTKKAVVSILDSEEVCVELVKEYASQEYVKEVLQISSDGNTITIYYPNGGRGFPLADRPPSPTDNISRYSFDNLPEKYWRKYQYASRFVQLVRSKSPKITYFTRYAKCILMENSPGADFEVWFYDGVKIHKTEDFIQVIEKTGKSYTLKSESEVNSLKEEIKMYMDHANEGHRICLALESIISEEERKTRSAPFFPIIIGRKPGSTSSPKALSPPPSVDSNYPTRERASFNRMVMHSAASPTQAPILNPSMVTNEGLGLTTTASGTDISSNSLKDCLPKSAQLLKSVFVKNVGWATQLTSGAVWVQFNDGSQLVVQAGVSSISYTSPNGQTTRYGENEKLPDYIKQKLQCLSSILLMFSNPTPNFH
UniProt Q15746, sequence (whole entry, looked up): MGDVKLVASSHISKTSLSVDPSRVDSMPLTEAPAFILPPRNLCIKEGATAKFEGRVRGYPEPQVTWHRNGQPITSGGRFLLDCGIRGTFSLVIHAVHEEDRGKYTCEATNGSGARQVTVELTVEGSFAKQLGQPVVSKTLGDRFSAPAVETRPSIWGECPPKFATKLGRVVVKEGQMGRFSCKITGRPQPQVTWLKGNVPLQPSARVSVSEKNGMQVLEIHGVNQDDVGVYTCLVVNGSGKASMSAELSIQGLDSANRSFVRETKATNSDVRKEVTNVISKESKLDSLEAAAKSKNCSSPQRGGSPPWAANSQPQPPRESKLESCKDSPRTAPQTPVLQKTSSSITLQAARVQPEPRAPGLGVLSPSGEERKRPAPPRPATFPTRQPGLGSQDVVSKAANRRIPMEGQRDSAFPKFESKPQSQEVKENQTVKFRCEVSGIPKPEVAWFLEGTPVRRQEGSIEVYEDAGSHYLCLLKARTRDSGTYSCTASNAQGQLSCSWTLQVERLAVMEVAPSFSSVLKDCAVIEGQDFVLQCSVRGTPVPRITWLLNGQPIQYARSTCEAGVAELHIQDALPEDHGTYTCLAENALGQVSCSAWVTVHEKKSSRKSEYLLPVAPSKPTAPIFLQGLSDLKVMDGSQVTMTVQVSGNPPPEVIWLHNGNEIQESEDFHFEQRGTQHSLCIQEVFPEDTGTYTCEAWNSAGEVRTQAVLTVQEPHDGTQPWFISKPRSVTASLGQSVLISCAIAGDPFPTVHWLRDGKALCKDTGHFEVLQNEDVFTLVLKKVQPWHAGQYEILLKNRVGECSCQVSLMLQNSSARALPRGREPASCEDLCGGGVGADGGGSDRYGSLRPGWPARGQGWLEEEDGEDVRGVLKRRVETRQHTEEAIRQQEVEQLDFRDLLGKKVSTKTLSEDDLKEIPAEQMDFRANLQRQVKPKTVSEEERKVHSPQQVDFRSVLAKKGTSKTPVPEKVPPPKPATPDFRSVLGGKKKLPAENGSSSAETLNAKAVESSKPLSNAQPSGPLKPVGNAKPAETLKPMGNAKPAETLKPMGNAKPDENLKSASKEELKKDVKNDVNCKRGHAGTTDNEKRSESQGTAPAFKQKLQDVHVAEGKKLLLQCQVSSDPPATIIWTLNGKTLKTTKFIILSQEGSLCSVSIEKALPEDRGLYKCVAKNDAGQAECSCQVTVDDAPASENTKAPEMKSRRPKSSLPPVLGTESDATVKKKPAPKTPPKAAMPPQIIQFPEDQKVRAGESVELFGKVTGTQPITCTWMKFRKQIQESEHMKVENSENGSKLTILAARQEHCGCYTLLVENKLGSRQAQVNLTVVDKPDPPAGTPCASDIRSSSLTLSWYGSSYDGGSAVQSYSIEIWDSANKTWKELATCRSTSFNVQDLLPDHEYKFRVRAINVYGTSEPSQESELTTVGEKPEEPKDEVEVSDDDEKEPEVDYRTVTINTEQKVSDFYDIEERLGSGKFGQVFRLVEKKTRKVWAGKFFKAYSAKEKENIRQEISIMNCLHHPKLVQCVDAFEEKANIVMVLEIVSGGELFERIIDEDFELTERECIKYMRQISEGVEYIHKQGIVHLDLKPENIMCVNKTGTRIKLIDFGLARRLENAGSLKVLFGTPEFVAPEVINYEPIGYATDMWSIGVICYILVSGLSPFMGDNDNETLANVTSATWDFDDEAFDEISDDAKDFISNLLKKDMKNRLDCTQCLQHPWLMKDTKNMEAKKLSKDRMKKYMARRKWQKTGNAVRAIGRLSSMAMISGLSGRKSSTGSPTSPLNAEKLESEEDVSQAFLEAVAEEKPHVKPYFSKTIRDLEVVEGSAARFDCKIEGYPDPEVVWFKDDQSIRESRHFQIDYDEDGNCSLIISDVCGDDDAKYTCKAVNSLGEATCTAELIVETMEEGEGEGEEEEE
UniProt Q9NY57, sequence (whole entry, looked up): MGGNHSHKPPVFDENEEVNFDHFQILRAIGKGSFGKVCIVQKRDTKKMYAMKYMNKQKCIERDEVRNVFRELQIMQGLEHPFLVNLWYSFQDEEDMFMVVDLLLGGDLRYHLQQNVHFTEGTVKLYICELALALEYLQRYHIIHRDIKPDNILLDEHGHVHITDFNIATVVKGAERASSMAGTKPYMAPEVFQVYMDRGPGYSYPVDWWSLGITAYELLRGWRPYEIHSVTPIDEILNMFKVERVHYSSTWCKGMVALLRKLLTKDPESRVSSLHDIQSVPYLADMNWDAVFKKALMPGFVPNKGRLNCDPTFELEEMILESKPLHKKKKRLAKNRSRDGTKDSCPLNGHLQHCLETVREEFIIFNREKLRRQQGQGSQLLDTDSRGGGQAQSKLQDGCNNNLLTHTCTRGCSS
UniProt Q00535, sequence (whole entry, looked up): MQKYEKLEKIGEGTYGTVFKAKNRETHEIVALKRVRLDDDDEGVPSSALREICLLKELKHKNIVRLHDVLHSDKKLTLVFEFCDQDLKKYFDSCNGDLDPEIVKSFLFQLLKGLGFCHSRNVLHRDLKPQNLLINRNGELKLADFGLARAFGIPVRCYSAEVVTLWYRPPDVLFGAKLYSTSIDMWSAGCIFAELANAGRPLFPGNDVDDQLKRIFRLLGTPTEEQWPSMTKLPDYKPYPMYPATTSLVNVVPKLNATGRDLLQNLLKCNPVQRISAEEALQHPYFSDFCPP

Series 1 — read-out: enzyme activity; action: inhibitor; tested at: 0.5 µM; relative to: control
Target: Cyclin-dependent kinase 6, with cyclin D3 (CDK6, Homo sapiens, UniProt Q00534)
UniProt Q00534, sequence (whole entry, looked up): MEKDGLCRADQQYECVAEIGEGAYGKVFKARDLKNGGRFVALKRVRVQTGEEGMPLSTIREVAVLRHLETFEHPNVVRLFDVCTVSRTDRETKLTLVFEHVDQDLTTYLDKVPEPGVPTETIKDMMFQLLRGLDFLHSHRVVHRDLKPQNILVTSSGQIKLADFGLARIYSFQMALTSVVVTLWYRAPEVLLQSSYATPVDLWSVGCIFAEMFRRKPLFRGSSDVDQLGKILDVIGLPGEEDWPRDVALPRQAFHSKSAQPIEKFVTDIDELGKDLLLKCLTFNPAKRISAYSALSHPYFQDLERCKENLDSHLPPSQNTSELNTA
| Structure (SMILES) | remaining activity [%] |
| --- | --- |
| Cc1ccc(NC(=O)c2ccc(CN3CCN(C)CC3)cc2)cc1Nc1nc(-c2cccnc2)cs1 | 90.5 |
| O=C1NC(=O)C(c2cn(CCCn3ccnc3)c3ccccc23)=C1Nc1ccccc1 | 104 |
| Oc1ccc(-c2nc(-c3ccncc3)c(-c3ccc(F)cc3)[nH]2)cc1 | 104 |
| CO[C@H]1C[C@@H]2CC[C@@H](C)[C@@](O)(O2)C(=O)C(=O)N2CCCC[C@H]2C(=O)O[C@H]([C@H](C)C[C@@H]2CC[C@@H](O)[C@H](OC)C2)CC(=O)[C@H](C)/C=C(\C)[C@@H](O)[C@@H](OC)C(=O)[C@H](C)C[C@H](C)/C=C/C=C/C=C/1C | 105 |
| O=c1c2ccccc2[nH]c(=S)n1CCN1CCC(=C(c2ccc(F)cc2)c2ccc(F)cc2)CC1 | 98.2 |
| Cc1cccc(-c2[nH]c(C(C)(C)C)nc2-c2ccc3c(c2)OCO3)n1 | 98 |
| O=C1NC(=O)C(c2cn(CCCO)c3ncccc23)=C1c1cnccn1 | 84.4 |
| NCCNc1ncc(C(N)=O)c(Nc2cccc(C(F)(F)F)c2)n1 | 100 |
| O=C(O)c1ccc2c3c1cccc3c(=O)n1c3ccccc3nc21 | 105 |
| N#CC(C#N)=C(N)/C(C#N)=C/c1ccc(O)cc1 | 100 |
| Nc1ncnc2n[nH]c(Nc3ccc(F)cc3)c12 | 99.6 |
| Cn1sc(=O)n(Cc2ccccc2)c1=O | 100 |
| CNC(=O)c1cc(Oc2ccc(NC(=O)Nc3ccc(Cl)c(C(F)(F)F)c3)cc2)ccn1 | 104 |
| COc1ccc(CNC(=O)Nc2ncc([N+](=O)[O-])s2)cc1 | 99.1 |
| Nc1ccc2ncnc(NCCc3ccc(Oc4ccccc4)cc3)c2c1 | 100 |

Series 2 — read-out: enzyme activity; tested at: 5 µM; relative to: untreated control
Structure (SMILES): O=C(Nc1cnn(-c2csc(C(=O)NC3COC3)c2)c1)Nc1ccccc1Cl
| target | remaining activity [%] |
| --- | --- |
| Serine/threonine-protein kinase PLK4 (PLK4, Homo sapiens, UniProt O00444) | 88 |
| Cyclin-dependent kinase 5, with p25 (CDK5, Homo sapiens, UniProt Q00535) | 101 |
| Rho-associated protein kinase 2 (ROCK2, Homo sapiens, UniProt O75116) | 99.4 |
| Myosin light chain kinase, smooth muscle (MYLK, Homo sapiens, UniProt Q15746) | 94.4 |
| Serine/threonine-protein kinase 32B (STK32B, Homo sapiens, UniProt Q9NY57) | 122 |

Series 3 — species: mouse; sample: microsomes or S9; tested at: 2 µM; time: 0.5 h
| SMILES | remaining compound |
| --- | --- |
| CC(=O)Nc1nc(-c2cnc3ccc(Cl)cn23)c(C)s1 | 22.4% |
| COc1ccccc1CNC(=O)C1(C)Cc2ccccc2C(=O)N1c1ccc(Cl)cc1 (centres unmarked) | 0.345% |
| Cc1ccc(O[C@H]2COCC[C@H]2NC(=O)c2cnn[nH]2)cn1 | 89.7% |
| O=c1ccc(-c2noc(Cc3c(F)cccc3Cl)n2)c[nH]1 | 0.13% |
| COc1ccc(CN(Cc2ccc(OC)cc2)c2ncnc3c2[nH]c(=O)n3[C@H](C)c2cc3ccccc3nc2-c2ccccc2C)cc1 | 37.3% |
| CCS(=O)(=O)Nc1cccc(-c2cc(=O)n(-c3ccc(Cl)c(C#N)c3)nc2C(C)C)c1 | > 99.9% |

Series 4 — action: agonist
Target: Beta-1 adrenergic receptor (ADRB1, Homo sapiens, UniProt P08588)
UniProt P08588, sequence (whole entry, looked up): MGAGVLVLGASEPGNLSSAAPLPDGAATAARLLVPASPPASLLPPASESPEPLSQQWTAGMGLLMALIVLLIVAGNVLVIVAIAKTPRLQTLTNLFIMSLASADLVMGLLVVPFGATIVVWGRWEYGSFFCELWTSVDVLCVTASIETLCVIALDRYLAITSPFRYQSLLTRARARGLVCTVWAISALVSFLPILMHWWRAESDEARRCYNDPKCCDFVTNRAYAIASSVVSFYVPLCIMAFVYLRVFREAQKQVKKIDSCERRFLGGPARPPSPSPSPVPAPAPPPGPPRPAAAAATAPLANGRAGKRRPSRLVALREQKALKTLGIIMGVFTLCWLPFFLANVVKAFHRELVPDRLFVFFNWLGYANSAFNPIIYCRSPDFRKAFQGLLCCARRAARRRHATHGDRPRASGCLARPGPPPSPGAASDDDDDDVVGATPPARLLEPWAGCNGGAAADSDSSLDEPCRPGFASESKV
| Compound | EC50 [µM] |
| --- | --- |
| N#CSCC(=O)c1ccc(O)c(O)c1 | ≥ 100 |
| Cn1nccc1-c1ncc2c(n1)OCCN(c1cccc(C(F)(F)F)c1)C2=O | ≥ 100 |
| N#CC(c1nc2ccccc2s1)c1cnn(-c2ccccc2)c(=O)c1Cl (centres unmarked) | ≥ 100 |
| O=c1c(Cl)c(NC(c2ccccc2)c2cccs2)cnn1-c1ccc(C(F)(F)F)cn1 (centres unmarked) | ≥ 100 |
| Cc1cc(C)n(-c2ccc(=O)n(C3CCN(c4nc5ccccc5cc4C#N)CC3)n2)n1 | ≥ 100 |
| Cc1noc2c(NCCc3ccccn3)cc(-c3ccccc3)nc12 | ≥ 100 |
| O=C(Nc1ccc([C@@H](O)[C@H]2COCC(=O)N2CCCc2ccccc2)cc1)C1CC1 | ≥ 100 |
| C[C@@H]1CN(CC(=O)Nc2ccc3c(c2)Cc2cccc(-c4cc(=O)cc(N5CCOCC5)o4)c2S3)C[C@H](C)O1 | ≥ 100 |
| Fc1ccc(-c2nnc3ccc(Nc4ccc(N5CCOCC5)cc4)nn23)nc1 | ≥ 100 |

Excerpt of the above (series 1):
| Structure (SMILES) | remaining activity [%] |
| --- | --- |
| Oc1ccc(-c2nc(-c3ccncc3)c(-c3ccc(F)cc3)[nH]2)cc1 | 104 |
| CO[C@H]1C[C@@H]2CC[C@@H](C)[C@@](O)(O2)C(=O)C(=O)N2CCCC[C@H]2C(=O)O[C@H]([C@H](C)C[C@@H]2CC[C@@H](O)[C@H](OC)C2)CC(=O)[C@H](C)/C=C(\C)[C@@H](O)[C@@H](OC)C(=O)[C@H](C)C[C@H](C)/C=C/C=C/C=C/1C | 105 |
| O=c1c2ccccc2[nH]c(=S)n1CCN1CCC(=C(c2ccc(F)cc2)c2ccc(F)cc2)CC1 | 98.2 |
| Cc1cccc(-c2[nH]c(C(C)(C)C)nc2-c2ccc3c(c2)OCO3)n1 | 98 |
| O=C1NC(=O)C(c2cn(CCCO)c3ncccc23)=C1c1cnccn1 | 84.4 |
